{"data": "Published values from different studies", "folP": "Dihydropteroate synthase (folP, Bacteria, UniProt P0AC13)", "T1": "RNA aptamer; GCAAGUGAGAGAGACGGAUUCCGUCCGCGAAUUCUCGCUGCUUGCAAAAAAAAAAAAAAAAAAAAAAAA", "T2": "RNA aptamer; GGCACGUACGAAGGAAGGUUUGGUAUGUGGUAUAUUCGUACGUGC", "T3": "RNA aptamer; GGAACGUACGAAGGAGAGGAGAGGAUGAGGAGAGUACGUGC", "note": "Compare with care: the assays were run in different laboratories. “And” joins repeats or separate records; there may be more than shown. ± gives the spread as reported."}
{"SMILES": "CC(=O)N[C@@H]1[C@@H](O[C@@H]2O[C@H](C(=O)O)[C@@H](O[C@@H]3O[C@H](COS(=O)(=O)O)[C@@H](OS(=O)(=O)O)[C@H](O[C@@H]4O[C@H](C(=O)O)[C@@H](OS(=O)(=O)O)[C@H](OS(=O)(=O)O)[C@H]4OS(=O)(=O)O)[C@H]3NC(C)=O)[C@H](OS(=O)(=O)O)[C@H]2OS(=O)(=O)O)[C@H](OS(=O)(=O)O)[C@@H](COS(=O)(=O)O)O[C@H]1SCCOCCOCCSSCCOCCOCCS[C@@H]1O[C@H](COS(=O)(=O)O)[C@@H](OS(=O)(=O)O)[C@H](O[C@@H]2O[C@H](C(=O)O)[C@@H](O[C@@H]3O[C@H](COS(=O)(=O)O)[C@@H](OS(=O)(=O)O)[C@H](O[C@@H]4O[C@H](C(=O)O)[C@@H](OS(=O)(=O)O)[C@H](OS(=O)(=O)O)[C@H]4OS(=O)(=O)O)[C@H]3NC(C)=O)[C@H](OS(=O)(=O)O)[C@H]2OS(=O)(=O)O)[C@H]1NC(C)=O", "target": "Interleukin-10 (Il10, Mus musculus, UniProt P18893)", "assay": "ITC", "setting": "concentration not given, concentrations 10 and 20 µM", "measurement": "binding stoichiometry", "result": "0.235 and 0.215 and 0.213"}
{"SMILES": "CCCCCC=CC=C1C(=O)C=CC1CC=CCCCC(=O)O (stereo not drawn)", "target": "Isocitrate dehydrogenase [NADP] cytoplasmic (IDH1, Homo sapiens, UniProt O75874)", "assay": "competitive isoTOP-ABPP", "system": "proteome, soluble, MDA-MB-231", "setting": "100 µM, 60 min, with: iodoacetamide probe", "how to read": "relative to: DMSO over compound-treated, higher = stronger cysteine blockade", "measurement": "isoTOP-ABPP competition ratio", "result": 5.1}
{"SMILES": "COc1ccccc1-c1ccncc1C(=O)Nc1nnc(OCc2ccc(Cl)cc2)s1", "target": "RECQL5 (Homo sapiens, UniProt O94762)", "assay": "ATPase activity, ADP-Glo", "setting": "0.48 µM, 1 h", "measurement": "remaining activity", "result": "109%"}
{"SMILES": "C[C@@H](Nc1nc(N[C@H](C)C(F)(F)F)nc(-c2cccc(Cl)n2)n1)C(F)(F)F", "target": "Isocitrate dehydrogenase [NADP], mitochondrial, heterodimer with wild-type (IDH2, Homo sapiens, UniProt P48735, R140Q)", "assay": "reverse reaction", "setting": "16 h preincubation, mutant", "measurement": "maximum inhibition", "result": "105 ± 2.8%"}
{"SMILES": "CCC1(CC)C(=O)N(c2cccc(C(=O)N3CCN(Cc4ccc(Br)cc4)CC3)c2)C1=O", "target": "Dipeptidyl peptidase 9 (DPP9, Homo sapiens, UniProt Q86TI2)", "assay": "enzyme activity, inhibitor", "setting": "5 µM", "measurement": "activity vs control", "result": "14%"}
{"SMILES": "Nc1ncnc2c1ncn2C1OC(COP(=O)(O)O)C(O)C1O (stereo not drawn)", "target": "Fructose-1,6-bisphosphatase 1 (Mus musculus, UniProt Q9QXD6, G27P)", "setting": "untagged G27P", "measurement": "Hill coefficient", "result": "1.77 ± 0.15"}
{"SMILES": "Nc1nc2[nH]nc(CC(=O)O)c(=O)c2c(=O)[nH]1", "target": "folP", "assay": "CETSA HiBiT", "system": "whole cells", "measurement": "melting temperature", "result": "73 °C"}
{"SMILES": "CC(=O)N[C@@H](CCC(=O)O)C(=O)N[C@@H](CCC(=O)O)C(=O)N[C@@H](CCC(=O)O)C(=O)N[C@@H](Cc1c[nH]c2ccccc12)C(=O)N[C@@H](C)C(=O)N[C@@H](CCCNC(=N)N)C(=O)N[C@@H](CCC(=O)O)C(=O)N[C@@H](Cc1ccccc1)C(=O)NCC(=O)N[C@@H](C)C(=O)N[C@@H](CCC(N)=O)C(=O)N[C@@H](CC(C)C)C(=O)N[C@@H](CCCNC(=N)N)C(=O)N[C@@H](CCCNC(=N)N)C(=O)N[C@@H](C)C(=O)N[C@@H](C)C(=O)N[C@@H](CC(=O)O)C(=O)N[C@@H](CC(=O)O)C(=O)N[C@@H](CC(C)C)C(=O)N[C@@H](CC(N)=O)C(=O)N[C@@H](C)C(=O)N[C@@H](CCC(N)=O)C(=O)N[C@@H](Cc1ccc(O)cc1)C(=O)N[C@@H](CCC(=O)O)C(=O)N[C@@H](CCCNC(=N)N)C(=O)N[C@@H](CCCNC(=N)N)C(=O)N[C@@H](CCCNC(=N)N)C(N)=O", "target": "Induced myeloid leukemia cell differentiation protein Mcl-1 homolog, residues 152-308 (Mus musculus, UniProt P97287)", "assay": "binding, SPR", "how to read": "relative to: PUMA peptide", "measurement": "ΔΔG", "result": "0.88 kcal/mol"}
{"SMILES": "Cc1n[nH]c2nc(N)[nH]c(=O)c2c1=O", "target": "folP", "assay": "CETSA HiBiT", "system": "whole cells", "measurement": "melting temperature", "result": "64.7 °C"}
{"SMILES": "Fc1ccc(Nc2nc(NC3CCCCC3)c3cc(C(F)(F)F)ccc3n2)cc1F", "target": "Beta-2 adrenergic receptor (ADRB2, Homo sapiens, UniProt P07550, F133L)", "assay": "β-arrestin2 recruitment, antagonist, BRET", "setting": "mutant F133L", "how to read": "relative to: isoprenaline maximal response", "measurement": "maximal inhibition", "result": "12%"}
{"SMILES": "Fc1ccc(Nc2nc(NCc3ncccn3)nc(Nc3ccccc3)n2)cc1", "target": "T1, RNA aptamer", "assay": "SPR", "setting": "25 °C, read off a plot", "measurement": "Kd", "result": "371 nM"}
{"SMILES": "CC(C)[C@H](NC(=O)[C@@H]1CCCN1C(=O)[C@H](CCCCN)NC(=O)[C@H](Cc1ccccc1)NC(=O)[C@H](Cc1ccccc1)NC(=O)[C@H](CC(=O)O)NC(=O)[C@H](CCC(=O)O)NC(=O)[C@H](Cc1ccc(O)cc1)NC(=O)[C@H](CC(=O)O)NC(=O)[C@H](CCC(=O)O)NC(=O)[C@H](CC(=O)O)NC(=O)[C@H](CCC(=O)O)NC(=O)[C@@H](N)Cc1ccc(O)cc1)C(=O)N[C@H](C(=O)N[C@@H](CSSC[C@H](NC(=O)[C@@H](NC(=O)[C@@H](NC(=O)[C@@H]1CCCN1C(=O)[C@H](CCCCN)NC(=O)[C@H](Cc1ccccc1)NC(=O)[C@H](Cc1ccccc1)NC(=O)[C@H](CC(=O)O)NC(=O)[C@H](CCC(=O)O)NC(=O)[C@H](Cc1ccc(O)cc1)NC(=O)[C@H](CC(=O)O)NC(=O)[C@H](CCC(=O)O)NC(=O)[C@H](CC(=O)O)NC(=O)[C@H](CCC(=O)O)NC(=O)[C@@H](N)Cc1ccc(O)cc1)C(C)C)[C@@H](C)O)C(=O)N[C@@H](Cc1ccc(O)cc1)C(=O)N[C@@H](Cc1ccccc1)C(N)=O)C(=O)N[C@@H](Cc1ccc(O)cc1)C(=O)N[C@@H](Cc1ccccc1)C(N)=O)[C@@H](C)O", "target": "C-C motif chemokine 2 (CCL2, Homo sapiens, UniProt P13500)", "assay": "chemokine binding, flow cytometry", "system": "THP-1", "setting": "with: fluorescent CCL2 1.2 nM", "measurement": "Hill slope", "result": -0.866}
{"SMILES": "Cc1cccc(C)c1CNc1cc(C(=O)N2CCC2)cn2c(C)c(C)nc12", "target": "porcine Na+/K+-ATPase", "system": "cerebral cortex", "how to read": "relative to: Na+/K+-ATPase IC50 over H+/K+-ATPase IC50", "measurement": "selectivity ratio", "result": "> 600 fold"}
{"SMILES": "Cc1ccc2c(c1)C(=Cc1sc3ccccc3[n+]1C)C=CN2C", "target": "T2, RNA aptamer", "assay": "fluorescence titration", "measurement": "Kd", "result": "2 nM"}
{"SMILES": "CC(C)=CC1OC(C)(C)C2C=C3C(=O)C(Cl)=CC(O)C3C3C(O)C4OC4C(=O)C132 (stereo not drawn)", "target": "Receptor-type tyrosine-protein kinase FLT3 (FLT3, Homo sapiens, UniProt P36888, D835V/ITD)", "assay": "cell-free assay, competition with immobilised ligand", "setting": "10 µM", "measurement": "remaining binding", "result": "6.5%"}
{"SMILES": "Cn1c(=O)n(C2CCC(=O)NC2=O)c2ccc(C3CCN(CC(=O)Nc4cccc(CS(=O)(=O)N5CC[C@H](Nc6cccc(-c7sc(C(=O)O)c(OCC(=O)O)c7Cl)c6)CC5(C)C)c4)CC3)cc21 (stereo partly drawn)", "target": "Tyrosine-protein phosphatase non-receptor type 1 (Mus musculus, UniProt P35821)", "assay": "degrader, Western blot", "system": "C57BL/6 mouse, splenocytes", "setting": "intravenous, 100 mg/kg every 4 days, three doses, 2 h after final dose", "measurement": "remaining protein", "result": "13%"}
{"SMILES": "N[C@H]1CC[C@H](Nc2nccc(-c3cccnc3Oc3ccc(NC(=O)NC4CC4)c4ccccc34)n2)CC1", "target": "Heat shock protein beta-1 (HSPB1, Homo sapiens, UniProt P04792)", "assay": "kinobead competition pulldown", "system": "HEK293/HCT116 lysate mixture", "setting": "10 µM, 1 h, 4 °C", "how to read": "lower = stronger competition", "measurement": "log2 LFQ intensity", "result": "23.5 and 23.2 and 23.7"}
{"SMILES": "COc1ccc(-c2ccc3c(c2)C(=Cc2sc4ccccc4[n+]2CC(=O)NCCOCCOCCOCCNC(=O)CCCC[C@@H]2SC[C@@H]4NC(=O)N[C@@H]42)C=CN3C)cc1", "target": "T3, RNA aptamer", "assay": "fluorescence titration", "measurement": "Kd", "result": "0.045 nM"}
{"SMILES": "CC(C)[C@@H]1NC(=O)[C@H](Cc2ccccc2)NC(=O)CSC[C@@H](C(N)=O)NC(=O)[C@H](CCC(=O)O)NC(=O)[C@H](CO)NC(=O)[C@H](Cc2c[nH]c3cccc(Cl)c23)NC(=O)[C@H](C2CCCCC2)NC(=O)[C@H](C(C)C)NC(=O)[C@H](Cc2ccc(O)cc2)NC(=O)[C@H](CC(=O)O)NC(=O)[C@H](Cc2c[nH]c3ccccc23)NC(=O)[C@H](Cc2ccc(N)nc2)NC(=O)[C@H](Cc2c[nH]c3ccc(Cl)cc23)NC(=O)[C@H](CCC(=O)O)NC1=O", "target": "Interleukin-1 receptor-like 2 (IL1RL2, Homo sapiens, UniProt Q9HB29)", "assay": "reporter gene (SEAP), inhibitor, HEK-Blue IL-36R reporter", "system": "HEK-Blue IL-36R cells", "setting": "0.14 µM, 6 h, with: IL-36γ 0.1 ng/mL", "measurement": "remaining activity", "result": "34.4%"}
{"SMILES": "CC[C@H](C)[C@@H]1NC(=O)[C@H](Cc2ccccc2)NC(=O)[C@H](CCC(=O)O)NC(=O)[C@H](CCCNC(=N)N)NC(=O)CNC(=O)[C@@H](NC(=O)[C@H](CC(C)C)NC(=O)[C@H](CCCNC(=N)N)NC(=O)[C@@H](NC(=O)CNC(=O)[C@H](Cc2ccc(O)cc2)NC(=O)[C@@H]2CCCN2C(=O)[C@H](C)NC(=O)[C@H](C)NC(=O)[C@@H](N)CCCNC(=N)N)C(C)C)CSSC[C@@H]2NC(=O)[C@@H](NC(=O)[C@H](CO)NC(=O)[C@H](CO)NC(=O)[C@H](CO)NC(=O)[C@H](CC(C)C)NC(=O)CNC(=O)[C@H](C)NC(=O)[C@H](CC(C)C)NC(=O)[C@@H](NC(=O)[C@@H](N)CC(=O)O)C(C)C)CSSC[C@H](NC(=O)CNC(=O)[C@H](Cc3c[nH]c4ccccc34)NC(=O)[C@H](CCCCN)NC2=O)C(=O)N[C@@H](CO)C(=O)N[C@@H](CCCCN)C(=O)N[C@@H](CO)C(=O)N[C@@H](CCC(=O)O)C(=O)N[C@@H]([C@@H](C)CC)C(=O)N[C@@H](CO)C(=O)N[C@@H](CO)C(=O)N[C@@H](CC(C)C)C(=O)N[C@H](C(=O)O)CSSC[C@@H](C(=O)NCC(=O)NCC(=O)N[C@@H](CO)C(=O)N[C@@H](CCCNC(=N)N)C(=O)N[C@@H](Cc2c[nH]c3ccccc23)C(=O)O)NC(=O)[C@H]([C@@H](C)O)NC(=O)[C@H](Cc2ccccc2)NC(=O)[C@H]([C@@H](C)CC)NC(=O)[C@H](C(C)C)NC(=O)[C@H](C)NC(=O)[C@H](CCCNC(=N)N)NC1=O", "target": "Relaxin-3 receptor 2 (RXFP4, Homo sapiens, UniProt Q8TDU9, F105A)", "setting": "F105A mutant", "how to read": "relative to: wild type", "measurement": "change in Emax", "result": "-17.4% and -30.2% and -20.4%"}
{"SMILES": "CC(=O)N[C@@H](CCC(N)=O)C(=O)N[C@@H](CC1CCCCC1)C(=O)N[C@@H](CNC(=O)CCl)C(=O)N[C@@H](CC(C)C)C(=O)N[C@@H](Cc1ccccc1)C(=O)O", "target": "Beta sliding clamp (Escherichia coli, UniProt P0A988)", "assay": "covalent adduct formation, mass spectrometry", "setting": "covalent step", "measurement": "activation energy", "result": "16.6 ± 3.3 kcal/mol"}
